Measured values from different studies.
Lines come from different studies, so protocols differ. Numbers after ± are the reported error.
Sequence of UniProt P51617 (whole entry, looked up): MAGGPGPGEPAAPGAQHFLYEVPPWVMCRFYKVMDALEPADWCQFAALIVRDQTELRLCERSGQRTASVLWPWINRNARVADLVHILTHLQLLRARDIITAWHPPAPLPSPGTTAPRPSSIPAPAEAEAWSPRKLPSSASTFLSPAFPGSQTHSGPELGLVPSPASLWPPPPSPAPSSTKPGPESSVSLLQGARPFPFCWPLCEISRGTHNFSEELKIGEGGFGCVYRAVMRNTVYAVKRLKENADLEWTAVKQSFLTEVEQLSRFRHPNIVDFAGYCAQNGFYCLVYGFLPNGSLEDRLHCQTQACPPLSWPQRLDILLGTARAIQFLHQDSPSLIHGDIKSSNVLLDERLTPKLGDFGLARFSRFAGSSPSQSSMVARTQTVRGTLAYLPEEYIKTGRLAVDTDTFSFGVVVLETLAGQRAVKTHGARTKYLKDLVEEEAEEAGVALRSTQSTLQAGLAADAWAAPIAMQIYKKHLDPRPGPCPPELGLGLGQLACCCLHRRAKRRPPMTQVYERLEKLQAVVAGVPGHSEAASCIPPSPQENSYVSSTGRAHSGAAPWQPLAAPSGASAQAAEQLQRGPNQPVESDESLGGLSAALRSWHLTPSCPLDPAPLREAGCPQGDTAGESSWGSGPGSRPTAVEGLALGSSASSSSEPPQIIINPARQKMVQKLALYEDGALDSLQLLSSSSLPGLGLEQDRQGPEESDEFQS
Sequence of UniProt Q9UM73 (whole entry, unmodified, looked up): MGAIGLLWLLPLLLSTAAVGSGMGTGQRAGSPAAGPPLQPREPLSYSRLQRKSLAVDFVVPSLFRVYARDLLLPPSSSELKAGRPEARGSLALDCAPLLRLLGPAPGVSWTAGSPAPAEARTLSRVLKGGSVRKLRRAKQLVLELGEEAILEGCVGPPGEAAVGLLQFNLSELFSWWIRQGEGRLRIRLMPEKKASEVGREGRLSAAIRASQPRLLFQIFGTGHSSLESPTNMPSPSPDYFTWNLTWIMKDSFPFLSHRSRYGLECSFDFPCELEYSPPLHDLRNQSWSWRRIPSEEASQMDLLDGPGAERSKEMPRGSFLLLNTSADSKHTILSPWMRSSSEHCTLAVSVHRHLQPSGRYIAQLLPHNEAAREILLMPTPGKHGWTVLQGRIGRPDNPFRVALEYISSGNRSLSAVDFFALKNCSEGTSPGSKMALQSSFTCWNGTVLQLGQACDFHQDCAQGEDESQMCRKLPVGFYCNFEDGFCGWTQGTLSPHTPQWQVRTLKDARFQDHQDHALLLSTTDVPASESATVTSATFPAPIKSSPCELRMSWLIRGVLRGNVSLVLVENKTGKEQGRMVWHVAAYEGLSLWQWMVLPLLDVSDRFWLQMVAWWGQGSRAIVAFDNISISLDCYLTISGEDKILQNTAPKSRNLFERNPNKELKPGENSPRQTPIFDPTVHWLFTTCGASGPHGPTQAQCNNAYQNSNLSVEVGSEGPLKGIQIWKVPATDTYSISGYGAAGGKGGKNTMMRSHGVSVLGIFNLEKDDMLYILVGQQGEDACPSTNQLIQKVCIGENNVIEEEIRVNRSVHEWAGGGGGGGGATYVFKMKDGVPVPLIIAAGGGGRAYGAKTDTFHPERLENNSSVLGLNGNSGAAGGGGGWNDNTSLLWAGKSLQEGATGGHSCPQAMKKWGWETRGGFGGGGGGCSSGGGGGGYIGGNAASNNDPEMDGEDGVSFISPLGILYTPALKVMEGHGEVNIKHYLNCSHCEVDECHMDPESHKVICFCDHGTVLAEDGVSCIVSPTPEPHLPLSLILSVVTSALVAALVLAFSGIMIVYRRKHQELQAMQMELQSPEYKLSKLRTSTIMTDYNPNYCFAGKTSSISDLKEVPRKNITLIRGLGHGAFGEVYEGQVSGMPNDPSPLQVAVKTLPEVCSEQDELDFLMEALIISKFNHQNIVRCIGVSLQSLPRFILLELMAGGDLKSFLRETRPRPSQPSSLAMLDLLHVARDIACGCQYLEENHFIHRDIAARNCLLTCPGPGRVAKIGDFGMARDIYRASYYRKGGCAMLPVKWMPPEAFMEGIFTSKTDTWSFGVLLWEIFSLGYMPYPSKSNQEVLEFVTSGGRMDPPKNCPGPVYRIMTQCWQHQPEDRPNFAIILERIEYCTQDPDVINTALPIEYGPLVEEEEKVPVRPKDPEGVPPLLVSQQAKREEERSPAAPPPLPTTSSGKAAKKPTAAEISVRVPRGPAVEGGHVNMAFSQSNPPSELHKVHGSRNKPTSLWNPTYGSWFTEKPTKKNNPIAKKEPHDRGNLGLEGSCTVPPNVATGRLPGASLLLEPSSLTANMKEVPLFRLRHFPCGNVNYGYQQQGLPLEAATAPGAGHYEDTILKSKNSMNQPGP

SMILES | tested on | test | system | conditions | how to read | endpoint | value
c1cc(C2CCCCC2)ccc1-c1ccc(N2CCCC2)nc1 |  | liver microsome stability | rat liver microsomes | 1 µM |  | hepatic clearance | 32 mL/min/kg
N#C[C@@H]1CC(F)(F)CN1C(=O)CNC(=O)c1ccnc2c(NC(=O)CCOCCOCCOCCOCCOCCOCCNC(=O)[C@H](CCCCNC(=O)CN3CCN(CC(=O)[O-])CCN(CC(=O)[O-])CCN(CC(=O)[O-])CC3)NC(=O)CCCc3ccc(I)cc3)cccc12.[177Lu+3] | U-87 MG tumour model |  | host not given, muscle | 4 h, tumour-bearing |  | tracer uptake | 0.85 %ID/g
Cc1ccc(-c2ccc([C@H]3[C@@H](F)[C@@H](F)C[C@@H](F)[C@H]3F)cc2)cn1 |  | hepatocyte stability | cryopreserved human hepatocytes | 1 µM |  | hepatic clearance | 9.2 mL/min/kg
CC(=O)N[C@H](C(=O)N[C@H](C(=O)N[C@@H](CCCNC(=N)N)C(=O)N[C@@H](CC(N)=O)C(=O)N[C@@H](CC(=O)O)C(=O)N[C@H](C(=O)N1CCC[C@@H]1C(=O)N1CCC[C@H]1C(=O)N[C@@H](CC(=O)O)C(=O)N[C@@H](CO)C(=O)N[C@@H](CC(C)C)C(=O)N[C@@H](CC(C)C)C(=O)N[C@H](C(=O)N[C@@H](Cc1ccccc1)C(N)=O)C(C)C)C(C)C)[C@@H](C)O)C(C)C | HEK-293T | subcellular fractionation LC-MS | nuclear fraction | 20 µM, 24 h |  | peptide amount per protein | not detected
Nc1nc2cc(C(=O)c3ccc(F)cc3)ccc2[nH]1 | Salmonella typhimurium | Ames preincubation test | TA1537 | 156.0 µg/plate, 3 days, without S9 |  | revertants per plate | 13.3 revertants/plate
CCCC[C@H](NC(=O)CCCCCCCNC(=O)CN1CCN(CC(=O)O)CCN(CC(=O)O)CC1)C(=O)N[C@H]1CC(=O)NCCCC[C@@H](C(N)=O)NC(=O)[C@H](Cc2c[nH]c3ccccc23)NC(=O)[C@H](CCCNC(=N)N)NC(=O)[C@@H](Cc2ccccc2)NC(=O)[C@H](Cc2c[nH]cn2)NC1=O [technetium-99m labelled] |  |  | C57 mouse, lung | intravenous, 0.037 MBq, 4 h |  | tissue uptake | 0.1 ± 0.06 %ID/g
Nc1ncc(-c2ccc(C3CCCCC3)cc2)cn1 |  | liver microsome stability | mouse liver microsomes | 1 µM |  | hepatic clearance | 61 mL/min/kg
CCn1nc(Cl)c2c1-c1cnc(N)c(c1)O[C@H](C)c1cc(F)ccc1-c1nn(C)cc1C2 | ALK (Homo sapiens, UniProt Q9UM73, C1156Y) | enzyme activity, inhibitor |  | with: 1 mM ATP |  | IC50 | 1 nM
Cc1cc(=O)c2c(O)c3c(O[C@@H]4O[C@H](CO)[C@@H](O)[C@H](O)[C@H]4O)cc(O)cc3cc2o1 | HepaRG co-cultured with HK-2 | MTT |  | 33.33 µM, 48 h | reference: untreated control | cell viability | 76 ± 6.88%
O=C(NCCO)c1ccc([C@H]2[C@@H](F)[C@@H](F)C[C@@H](F)[C@H]2F)cc1 |  | hepatocyte stability | cryopreserved mouse hepatocytes | 1 µM |  | hepatic clearance | 21 mL/min/kg
O=C(Nc1cnccc1-c1ccc([18F])cc1)c1ccnc(NC(=O)C2CC2)c1 |  | ex vivo biodistribution, gamma counting | GSK-3β overexpressing transgenic mouse, late stage, left kidney | intravenous, 120 min post-injection |  | mean SUV | 0.79
C=C(NC(=O)c1csc(-c2nc3c(cc2O)-c2nc(cs2)C(=O)NC(C(C)O)C(=O)NC(=C(C)OC)c2nc(cs2)C(=O)NC2c4nc(cs4)C(=O)NC(COC(=O)c4c5c6c(cccc6n4O)COC(=O)C(OC4CC(C)(O)C(N(C)C)C(C)O4)C2OC5)c2nc-3cs2)n1)C(N)=O (stereo not drawn) |  |  | cynomolgus monkey, female, plasma | intravenous infusion, 3 mg/kg multiple doses, day 7 |  | Cmax | 25900 ng/mL
C=CC(=O)Nc1cccc(Cn2ncc3cnc(Nc4cnn(CCOC)c4)nc32)c1 | DYRK1B human | binding, KINOMEscan |  | 100 nM | lower = stronger binding | percent of control | 85%
Nc1ncc(-c2cc(-c3cnn(CC(F)(F)F)c3)ncc2F)nc1C(=O)NC1CNCC(F)C1 (stereo not drawn) | PAK6 | KINOMEscan |  | 1 µM | reference: DMSO control | remaining binding | 76%
Cc1nn(-c2cccc(N)c2)c(=O)c2cnc(Nc3ccc(N4CCNCC4)cc3)nc12 | IRAK1 (Homo sapiens, UniProt P51617) | enzyme activity, inhibitor |  |  |  | IC50 | > 10000 nM
CC(C)OCCOCc1ccc(OCC(O)CN(N=O)C(C)C)cc1 (stereo not drawn) | Escherichia coli | Ames test | WP2 uvrA | 15.8 µg/plate, without metabolic activation | reference: solvent control | revertant fold increase | 0.9 fold
CNC(=O)C1CCCN(C(=O)C2CC3CCC2N3C(=O)[C@@H]2C[C@@H](O)CN2C(=O)NCc2cccc(Cl)c2F)C1 (mixture of isomers) | CYP2C19 (Homo sapiens, UniProt P33261) | enzyme activity, inhibitor, time-dependent inhibition |  | 16.7 µM, preincubated with NADPH | reference: negative control | remaining activity | 104%
N#C[C@@H]1CC(F)(F)CN1C(=O)CNC(=O)c1ccnc2c(NC(=O)[C@@H](N)CCCCNC(=O)CCOCCOCCOCCOCCOCCOCCNC(=O)CN3CCN(CC(=O)[O-])CCN(CC(=O)[O-])CCN(CC(=O)[O-])CC3)cccc12.[177Lu+3] | U-87 MG tumour model |  | host not given, bone | 4 h, tumour-bearing |  | tracer uptake | 0.37 %ID/g
CNS(=O)(=O)Nc1nccc(Cc2c(C)c3ccc(Oc4ncccc4F)cc3oc2=O)c1F | MX-1 | cell viability, CellTiter-Glo |  | 7 days |  | IC50 | > 1000 nM
CC(C)C[C@H](NC(=O)[C@@H](CCCCNC(=O)[C@@H](Cc1ccccc1)NC(=O)CCCCCNC(=O)CN1CCN(CC(=O)O)CCN(CC(=O)O)CCN(CC(=O)O)CC1)NC(=O)[C@H](Cc1ccc(O)cc1)NC(=O)[C@H](CO)NC(=O)[C@H](Cc1c[nH]c2ccccc12)NC(=O)[C@H](Cc1c[nH]cn1)NC(=O)[C@@H]1CCC(=O)N1)C(=O)N[C@@H](CCCNC(=N)N)C(=O)N1CCC[C@H]1C(=O)NCC(N)=O [indium-111 labelled] |  |  | female athymic nude mice, liver | intravenous, 0.037 MBq, 1 h |  | tissue uptake | 0.62 ± 0.1 %ID/g
CCN(CC)CC#CCNc1ccnc2cc(Cl)ccc12 | Salmonella typhimurium | mini-Ames test | TA1535 | 125.0 µg/well, with rat liver S9 |  | revertants per well | 4
Cc1ncsc1-c1ccc(C(C)NC(=O)C2CC(O)CN2C(=O)C(NC(=O)CCCCCCCCCCN2CCCC(Nc3ncc(Cl)c(Nc4ccccc4S(=O)(=O)C(C)C)n3)C2)C(C)(C)C)cc1 (stereo not drawn) | 22Rv1 | RNA-seq, item: SPTLC3 mRNA |  | concentration not given | reference: DMSO | log2 fold change | -2.12
c1cc(C2CCCCC2)ccc1-c1cnc(N2CCOCC2)nc1 |  | liver microsome stability | dog liver microsomes | 1 µM |  | hepatic clearance | 26 mL/min/kg
COc1cccc(OC)c1-c1cc(C(=O)NC2(C(=O)O)C3CC4CC(C3)CC2C4)nn1-c1ccc(C(=O)N(C)CCOCCN(C)C(=O)[C@H](CCCCNC(=O)[C@H](CC(C)C)NC(=O)C2OC2C(=O)O)NC(=O)CN2CCN(CC(=O)[O-])CCN(CC(=O)[O-])CCN(CC(=O)[O-])CC2)cc1C(C)C.[177Lu+3] (mixture of isomers) | HT-29 tumour model |  | host not given, stomach | 72 h, tumour-bearing |  | tracer uptake | 0.072 %ID/g

For quick reference, copied from above:
SMILES | tested on | test | system | conditions | how to read | endpoint | value
N#C[C@@H]1CC(F)(F)CN1C(=O)CNC(=O)c1ccnc2c(NC(=O)[C@@H](N)CCCCNC(=O)CCOCCOCCOCCOCCOCCOCCNC(=O)CN3CCN(CC(=O)[O-])CCN(CC(=O)[O-])CCN(CC(=O)[O-])CC3)cccc12.[177Lu+3] | U-87 MG tumour model |  | host not given, bone | 4 h, tumour-bearing |  | tracer uptake | 0.37 %ID/g
CNS(=O)(=O)Nc1nccc(Cc2c(C)c3ccc(Oc4ncccc4F)cc3oc2=O)c1F | MX-1 | cell viability, CellTiter-Glo |  | 7 days |  | IC50 | > 1000 nM
CC(C)C[C@H](NC(=O)[C@@H](CCCCNC(=O)[C@@H](Cc1ccccc1)NC(=O)CCCCCNC(=O)CN1CCN(CC(=O)O)CCN(CC(=O)O)CCN(CC(=O)O)CC1)NC(=O)[C@H](Cc1ccc(O)cc1)NC(=O)[C@H](CO)NC(=O)[C@H](Cc1c[nH]c2ccccc12)NC(=O)[C@H](Cc1c[nH]cn1)NC(=O)[C@@H]1CCC(=O)N1)C(=O)N[C@@H](CCCNC(=N)N)C(=O)N1CCC[C@H]1C(=O)NCC(N)=O [indium-111 labelled] |  |  | female athymic nude mice, liver | intravenous, 0.037 MBq, 1 h |  | tissue uptake | 0.62 ± 0.1 %ID/g
